Experimental data collected from several papers.
Each numbered part is a random draw from the data of one study; scales do not carry over between parts. Substitutions count along the parent as printed.

Sample 1 — technique: RNA Bind-n-Seq; molecule type: RNA; medium: in vitro; concentration: 200 nM; notes: whole 134-nt RNA, ends assumed; together with: 150 mM KCl; baseline: input library; reading: higher = stronger binding
Target: Fragile X messenger ribonucleoprotein 1, C-terminal low-complexity region (Fmr1, Mus musculus, UniProt P35922)
Shared flanks, not repeated: GGGAGUUCUACAGUCCGACGAUC … UGGAAUUCUCGGGUGUCAAGG
Strand | log2 enrichment
GUCCUGUGCUACACAUCGUAUGUACCGAAUCGGGUGGGUUUUUUUGGGAAAAAAAGGGAAAGUAUUAUGUUACGCCGUUCGGAUCUGCAC | 0.112
CAAGUCCUGUGCUACACAUCGUAUGUACCGAAUCGGGGUUUUGGUUUUGGUUUUGGAAAGUAUUAUGUUACGCCGUUCGGAUCUGCACUU | -0.513
GUCCUGUGCUACACAUCGUAUGUACCGAAUCAAACCCAAACCCCCCCAAAUUUUUAAAAAAGUAUUAUGUUACGCCGUUCGGAUCUGCAC | -0.158
CACAGACAACACGCACCCACACAGCCACAGAGGGAAGGGGUUGGGAUGGGGACAGGGUGCACAGCAGGGCGGGGUAGGACCCCAGCCCCU | 1.31
UGGCCCUGGUGGCAUUCGGGGAGGAAGAGGUGGCCUCAUGGAUCGUGGUGGUCCCGGUGGAAUGUUCAGAGGUGGCCGUGGUGGAGACAG | 0.122
UGGCCCUGGUGGCAUGGGGGGAGGAAGAGGUGGCCUCAUGGAUCGUGGUGGUCCCGGUGGAAUGUUCAGAGGUGGCCGUGGUGGAGACAG | 0.257
UGGCCUUAUCACUCCUGGAGGCUUUUCAUCAGUGCCUGCUGGAAUGGAGACCCCUGAACUCAUUGAGCUGAGGAAGAAGAAGAUUGAGGA | -1.64
UCAAGUCCUGUGCUACACAUCGUAUGUACCGAAUCGGAAAGGUUUGGAAAAAGGAAAGUAUUAUGUUACGCCGUUCGGAUCUGCACUUCC | -0.7
AGUCCUGUGCUACACAUCGUAUGUACCGAAUCGGGUUUUUUUGGGUGGGAAAAAGGGAAAGUAUUAUGUUACGCCGUUCGGAUCUGCACU | 0.513

Sample 2 — technique: RNA Bind-n-Seq; molecule type: RNA; medium: in vitro; concentration: 365 nM; baseline: no-protein control; reading: higher = stronger binding
Target: RNA binding protein fox-1 homolog 2, RRM domain, GST-SBP tag (RBFOX2, Homo sapiens, UniProt O43251-10, residues 100-194)
Notes: natural RNA segment, single round, ends assumed
Shared flanks, not repeated: GGGAGUUCUACAGUCCGACGAUC … UGGAAUUCUCGGGUGCCAA
Target sequence (chain): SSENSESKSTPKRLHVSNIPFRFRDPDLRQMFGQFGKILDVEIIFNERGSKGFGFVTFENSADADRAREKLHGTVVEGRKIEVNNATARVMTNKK
Strand | RBNS enrichment (R)
AACGACAGCAACGAAAACUCCUUAAUCAGAACACUGAUCCAAUGAGGAAUGGAGCUUGUUUCUGUGACCCAGGAGAACUUAGUGCAAGACUACAGGAGUUAACAGAUGGC | 0.376
AUGUCCCCAACUCAAGGCUAGAAAACAGCAAGAUGGAGAAAUAAUGUUCUGCUGCGUCCCCACCGUGACCUGCCUGGCCUCCCCUGUCUCAGGGAGCAGGUCACAGGUCA | 0.207
AGCACAAAGUGCAUCUCAGAGAUGUGCUAGUGGCUUAUCCUGGGCUUGGCCUGCAACAUGGGAGGCUUGGGACGGGGGUCUUGGACCUGCUCAUGACCCCUGAGCAGCCU | 0.344
CGGCUCGGCCGCCACCCAGGACGCUUCCAGACCACCUGCCAGCCAUCUCGUGGAGAACAUAGAUGGCAGAAAUCUUGCAGCUUUUUUAUUUAAAAGAAAAGAAAAAAAAG | 0.332
AGAACCAUUUUUAUGUAAUCUGAUUUGAAUGUUAUAGUUGAUAAUAAUAAAAUCACUUACUUGGUUGCUAUUUAGUGUUGCAUUUAAUGAUAAAAAACAGACCCUGUGUA | 1.25
CAUUUUCAAUAAACUUUGGAACAACCUUCUCGUAUCUCCCCUAGAGUUUCGUGCCCCUCUGAACUGUCUGUUAUUGCAAUGUAGUUUAUCAACAGAAUUUGUGUGUUUUC | 0.524
GCACCCGCGGGGGCCUGGGAGUCCCCAUUUGCAGGUGGGUAGGGCCUCCAGCCCACACCACCCAGACCUAGGCUUCCCUCUUCUCAGGAUCCACCACAGGGUUAGGGGAC | 0.478
UCAGUCCUUGCUGUUGAUGGAGCUGGGAGGAGGAGGGACCUAAGGACUCAGGACAGAGCAUCUCACGCGAAGUUCUGUGUGGCAGUCAAGUGUUCCUCGUGGAGUCAGCC | 0.284

Sample 3 — technique: DHFR PCA, deep sequencing; medium: yeast; together with: (+)-ABA 1.4 µM; baseline: wild-type fitted maximum; reading: higher = stronger binding
Target: ABI1, truncated, D143A, DHFR fusion (Arabidopsis thaliana)
Notes: methotrexate growth selection, single substitutions
Starting sequence: PYL1, truncated, DHFR fusion (Arabidopsis thaliana); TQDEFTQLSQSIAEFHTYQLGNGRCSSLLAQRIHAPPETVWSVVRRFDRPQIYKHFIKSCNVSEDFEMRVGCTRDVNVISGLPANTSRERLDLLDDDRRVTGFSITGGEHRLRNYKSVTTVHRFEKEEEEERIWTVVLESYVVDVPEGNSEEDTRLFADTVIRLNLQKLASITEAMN; partner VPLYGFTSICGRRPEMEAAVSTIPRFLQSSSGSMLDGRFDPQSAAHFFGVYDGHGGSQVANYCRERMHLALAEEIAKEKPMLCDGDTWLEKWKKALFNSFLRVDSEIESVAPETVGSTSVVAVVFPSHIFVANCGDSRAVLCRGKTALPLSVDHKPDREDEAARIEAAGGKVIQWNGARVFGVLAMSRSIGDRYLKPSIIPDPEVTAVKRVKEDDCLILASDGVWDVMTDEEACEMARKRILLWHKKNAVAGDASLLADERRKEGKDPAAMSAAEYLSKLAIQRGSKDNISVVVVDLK
Change | relative binding score
R90P | 0.196%
V62W | -0.659%
I172S | -3.91%
V76W | -2.73%
R90S | 2.86%
R74E | -1.68%
K126A | 82.8%
V76C | 27.5%
E89Q | 0.186%
S42V | 1.76%
S80N | 24.8%
N177L | 39%
S11T | 54.3%
A84C | 25.8%
V76G | -1.59%
R69I | 49.3%
N22P | 74.6%

Sample 4 — target: CCND1, cyclin fold, Cln2 fusion (human); technique: yeast growth competition, sequencing; medium: yeast; notes: weak parent motif; baseline: not given; reading: higher = stronger binding
Starting sequence: RRM2 docking peptide (human); SKTARRIFQEPTE; partner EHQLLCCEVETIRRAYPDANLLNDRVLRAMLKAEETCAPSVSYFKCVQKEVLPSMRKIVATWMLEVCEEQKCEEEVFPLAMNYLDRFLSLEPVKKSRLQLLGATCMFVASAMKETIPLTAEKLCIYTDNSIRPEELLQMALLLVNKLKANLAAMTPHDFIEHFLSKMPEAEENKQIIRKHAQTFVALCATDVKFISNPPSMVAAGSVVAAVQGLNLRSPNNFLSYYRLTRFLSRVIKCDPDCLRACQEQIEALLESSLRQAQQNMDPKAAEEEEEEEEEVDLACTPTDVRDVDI
Change | normalised enrichment score
AKTARRIFQEPTE [S1A] | 0.198
SKTARRIFQAPTE [E10A] | 0.0388
SKTARRIAQEPTE [F8A] | 0.442
SKTARRIFQEPTA [E13A] | 0.225
SKTARRIFQEPAE [T12A] | 0.449
SKTARRIFAEPTE [Q9A] | 0.573
